Assay results gathered from unrelated publications.
Lines come from different studies, so protocols differ. ± gives the spread as reported.

SMILES | target or system | test | test system | setting | scale | endpoint | result
Cc1nc(C)c(C=[N+]([O-])C(C)(C)C)nc1C |  |  | Sprague-Dawley rat, both sexes, brain | oral, 45 mg/kg, 10 min |  | concentration | 28200 ng/g
CCCN1C(=O)CCc2cc(NS(=O)(=O)Cc3ccc(C)cc3)ccc21 |  | LC-MS |  | mild UV light | reference: ABA | half-life relative to ABA | ~7 fold
O=C(O)/C=C/c1cccc(S(=O)(=O)Nc2ccccc2)c1 |  |  | human, severe liver dysfunction, plasma | intravenous, 400 mg/m^2 belinostat, cycle 1 day -7, geometric mean | reference: metabolite over belinostat | Cmax metabolic ratio | 0.0806
CCC(=O)N(C)c1ccc(Cl)c(Cl)c1 | CHO-WBL |  |  | 0.13 mg/mL, 3 h, with S9 activation |  | cells with one aberration | 0%
[64Cu+2].c1ccc(CNCc2ccc(CN3CCCN4CCNCCCN(CC4)CC3)cc2)nc1 | CXCR4 (human) |  | NOD/SCID mice, U87 xenografts, small intestine | 240 min post-injection |  | tissue uptake | 4.73 ± 1.19 %ID/g
CCCCCCCCCCCCCCCC(=O)N[C@@H](CCCCN)C(=O)N[C@@H](CCCCN)C(=O)N[C@@H](CO)C(=O)N[C@@H](CCCNC(=N)N)C(=O)N[C@@H](C)C(=O)N[C@@H](CC(C)C)C(=O)N[C@@H](Cc1ccccc1)C(N)=O |  |  | cynomolgus monkey, male | 10 mg/kg, day 5 |  | prothrombin time | 12.2 ± 0.3 s
COC(=O)CCn1c2ccc([N+](=O)[O-])cc2c(=O)n1Cc1ccccc1 |  | resazurin | peritoneal macrophages, BALB/c mice | 48 h, 10% FBS |  | CC50 | 7.2 ± 5.4 µM
COC(=O)c1ccc(-c2cn(Cc3cc(Cl)ccc3O[11CH3])nn2)cc1 |  | PET, two-tissue compartment model | rhesus monkey, brain Amygdala | dose not given |  | distribution volume | 0.565 mL/cm³
CN1CCC[C@]1(C)/C=C/S(=O)(=O)NC(=O)Nc1c2c(cc3c1CCC3)CCC2 |  |  | human, plasma | oral, 12.5 mg twice daily, 14 days, multiple ascending dose | reference: day 14 over day 1 | accumulation ratio AUC(0-24) | 1.4
C[C@@H](O)[C@@H]1NC(=O)[C@H](CCCCN)NC(=O)[C@@H](Cc2ccc(NC(N)=O)cc2)NC(=O)[C@H](Cc2ccc(NC(=O)[C@@H]3CC(=O)NC(=O)N3)cc2)NC(=O)[C@H](NC(=O)[C@H](Cc2ccc(Cl)cc2)NC(=O)CN2CCN(CC(=O)O)CCN(CC(=O)O)CCN(CC(=O)O)CC2)CSSC[C@@H](C(=O)N[C@H](Cc2ccc(O)cc2)C(N)=O)NC1=O |  |  | mouse serum | concentration not given, 37 °C |  | protein-bound activity | < 10%
NCCCC[C@H](NC(=O)[C@H](Cc1ccc(O)cc1)NC(=O)[C@H](CCCCN)NC(=O)[C@H](Cc1c[nH]c2ccccc12)NC(=O)[C@H](Cc1ccccc1)NC(=O)[C@H](Cc1ccccc1)NC(=O)Cc1ccc(-c2ccccc2)cc1)C(=O)NCC(=O)N[C@@H](Cc1c[nH]cn1)C(=O)N1CCC[C@H]1C(=O)NCC(=O)NCC(=O)N1CCC[C@H]1C(=O)N[C@@H](CCC(N)=O)C(=O)N[C@@H](CC(=O)O)C(=O)N[C@@H](CC(=O)O)C(=O)N[C@@H](CC(=O)O)C(=O)N[C@@H](CC(=O)O)C(=O)N[C@@H](CC(=O)O)C(=O)N[C@@H](CC(=O)O)C(=O)O |  | Zetasizer |  | 64 µM, self-assembled peptide |  | zeta potential | -32.8 mV
N=C(N)NCCC[C@@H]1NC(=O)[C@H](Cc2c[nH]c3ccccc23)NC(=O)[C@@H](CC2CCCCC2)NC(=O)[C@@H]2CCCN2C(=O)[C@@H](NC(=O)CCc2ccccc2)CCCNC1=O |  |  | C57BL/6J mouse, plasma plasma | subcutaneous, 1 mg/kg single dose |  | MRT(0-last) | 0.678 h
CNC(=S)N/N=C/c1ccccn1 |  | cyclic voltammetry | DMF | Cu2+ complex |  | peak current ratio ipa/ipc | 0.18
CC(C)[C@H](NC(=O)[C@@H]1CCCN1C(=O)[C@H](CCCNC(=N)N)NC(=O)[C@H](CS)NC(=O)[C@H](Cc1c[nH]c2ccccc12)NC(=O)[C@H](CCCNC(=N)N)NC(=O)[C@@H](Cc1ccccc1)NC(=O)[C@H](Cc1c[nH]cn1)NC(=O)[C@H](CCC(=O)O)NC(=O)[C@H](CS)NC(=O)[C@H](CS)NC(=O)[C@@H]1CC(=O)N[C@@H](CCCNC(=N)N)C(=O)NCC(=O)N[C@@H](CC(=O)O)C(=O)N[C@H](Cc2ccc(O)cc2)C(=O)N1)C(N)=O [technetium-99m labelled] |  |  | C57 mouse, female, B16/F1 melanoma | intravenous, 0.037 MBq, 4 h | reference: tumour over blood | tumour to tissue ratio | 25.2
CC[C@H](C)[C@H](NC(=O)[C@H](Cc1ccccc1)NC(=O)[C@H](CN)NC(=O)[C@H](CCCNC(=N)N)NC(=O)[C@H](Cc1ccccc1)NC(=O)[C@H](Cc1ccccc1)NC(=O)[C@H](CCCCN)NC(=O)[C@H](CO)NC(=O)[C@H](CC(C)C)NC(=O)[C@H](CCCNC(=N)N)NC(=O)[C@H](CCSC)NC(=O)[C@H](C)N)C(=O)N[C@@H](CC(C)C)C(=O)N[C@@H](CCN)C(=O)N[C@@H](CCCNC(=N)N)C(=O)N[C@@H](CCCCN)C(=O)N[C@@H](CCCCN)C(=O)O |  | circular dichroism | 20% TFE in PBS | 200 µM, pH 7.4, 25 °C |  | helicity | 4.2%
CC(C)(Sc1ccncc1-c1ccc(C#N)c2ccccc12)C(=O)OC1OC(C(=O)O)C(O)C(O)C1O (stereo not shown) |  |  | adult men, plasma | oral, 15 mg verinurad, severe renal impairment | reference: impaired over normal renal function | Cmax ratio | 353%
CC1(C)C(=CC=C(C=CC2=[N+](CCC[N+](C)(C)C)c3ccc(S(=O)(=O)[O-])cc3C2(C)C)CCC(=O)[O-])N(CCC[N+](C)(C)C)c2ccc(S(=O)(=O)[O-])cc21 |  |  | 100% serum | pH 7.4 |  | absorbance maximum | 642 nm
CN(C1COC1)C(C)(C)/C=C(\C#N)C(=O)N1CCC[C@H]1Cn1nc(-c2ccc(Oc3ccccc3)cc2F)c2c(N)ncnc21 |  |  | female Sprague-Dawley rat, plasma | oral, 40 mg/kg, 14 h |  | concentration | 3 ng/mL
CC1(C)C(/C=C/C2=C(Cl)C(=C/C=C3/N(CCCCCC(=O)O)c4ccccc4C3(C)C)/C[N+](C)(C)C2)=[N+](CCCCCC(=O)O)c2ccccc21 |  |  | 10 mM PBS | 20 µM, pH 7.4, 750 nm LED light |  | photostability | stable
O=C(O)C1OC(OC2C(COS(=O)(=O)O)OC(OC3C(C(=O)O)OC(OC4C(COS(=O)(=O)O)OC(OC5C(C(=O)O)OC(OC6C(COS(=O)(=O)O)OC(OC7C(C(=O)O)OC(OC8C(COS(=O)(=O)O)OC(OC9C(C(=O)O)OC(OC%10C(COS(=O)(=O)O)OC(OC%11C(C(=O)O)OC(Oc%12ccc([N+](=O)[O-])cc%12)C(O)C%11O)C(NS(=O)(=O)O)C%10O)C(OS(=O)(=O)O)C9O)C(NS(=O)(=O)O)C8O)C(OS(=O)(=O)O)C7O)C(NS(=O)(=O)O)C6O)C(OS(=O)(=O)O)C5O)C(NS(=O)(=O)O)C4O)C(OS(=O)(=O)O)C3O)C(NS(=O)(=O)O)C2OS(=O)(=O)O)C(O)C(O)C1OC1OC(COS(=O)(=O)O)C(O)C(O)C1NS(=O)(=O)O (stereo not shown) |  |  | rat, heart | intravenous, 3600 µg/kg per day, 7 days, day 8 |  | organ-to-body weight ratio | 0.41 ± 0.02

SMILES | target or system | test | test system | setting | scale | endpoint | result
CC(C)[C@H](NC(=O)CNC(=O)[C@H](CCC(N)=O)NC(=O)[C@H](C)N)C(=O)O |  | LC-MS/MS | human, plasma | intravenous, 10 mg/kg three times daily, day 3, first dose, geometric mean |  | volume of distribution | 4 L/kg
COc1ccc(/C=C/c2ccc(-c3ccc(C)cn3)nc2)cc1 |  |  | acetonitrile | zinc(II) complex |  | fluorescence lifetime | 3.14 ns
[64Cu+2].c1cnc(CNCc2ccc(CN3CCCN4CCNCCCN(CC4)CC3)cc2)nc1 | CXCR4 |  | NOD/SCID mouse, U87 and U87-stb-CXCR4 xenografts, blood | iv, 90 min, no blocking dose, ex vivo |  | tissue uptake | 0.64 ± 0.05 %ID/g
CC(C)c1cnc(-c2cc(Cl)ccc2F)cc1Nc1ccncc1C(=O)NC(CO)CO |  |  | patients, phase I monotherapy | oral, dose not given, grade 2 |  | patients with anaemia | 9.5%
C[Si]1(C[C@@H](CN)CC(=O)O)CCCC1 |  |  | male Sprague-Dawley rat, brain | oral, 30 mg/kg, 1 h, single dose |  | concentration | 2600 nM
CN1CCC(Cn2nc(-c3ccc4nc(O)ccc4c3)c3c(N)ncnc32)CC1 |  |  | piglets, crossbred | oral, 10 mg/kg twice daily, 2 h before dose 9, 7 days post infection |  | plasma concentration | 200 ± 10 nM
CSCOC1C(=O)C2(C)C(OCSC)CC3OCC3(OC(C)=O)C2C(OC(=O)c2ccccc2)C2(O)CC(OC(=O)C(O)C(C=C(C)C)NC(=O)OC(C)(C)C)C(C)=C1C2(C)C (stereo not shown) |  |  | male Sprague-Dawley rat, plasma | intravenous, 2 mg/kg |  | MRT(0-t) | 2.8 h
[11CH3]c1ccc2nc(C3CCC3)n(-c3ccc4[nH]ncc4c3)c2n1 |  | extrapolated from mouse | standard human, heart wall |  |  | absorbed dose | 4.9 µSv/MBq
C=C(c1ncc(C(=O)O)cn1)c1cc2c(cc1C)C(C)(C)CCC2(C)C |  |  | Sprague-Dawley rat, male | oral, 100 mg/kg, 9 h, sesame oil vehicle |  | blood triglycerides | 290 ± 313 mg/dL
CCCC[C@H](NC(=O)CNC(=O)CNC(=O)CN1CCN(CC(=O)O)CCN(CC(=O)O)CC1)C(=O)N[C@H]1CC(=O)NCCCC[C@@H](C(N)=O)NC(=O)[C@H](Cc2c[nH]c3ccccc23)NC(=O)[C@H](CCCNC(=N)N)NC(=O)[C@@H](Cc2ccccc2)NC(=O)[C@H](Cc2c[nH]cn2)NC1=O [copper-64 labelled] |  |  | female C57 mouse, B16/F1 melanoma | intravenous, 0.037 MBq, 0.5 h | reference: tumour over stomach | uptake ratio | 19.2
Cn1c(=O)oc2ccc(-c3ccc(CC(C#N)NC(=O)C4CNCCCO4)c(F)c3)cc21 (stereo not shown) |  | item: glucose urine present | human | 60 mg single dose, fasted |  | subjects with TEAE | 0%
COc1cc(NC(C)=O)c2c(c1O)-c1c(OC)c(OC)cc3c1C(C2)N(C)CC3 (stereo not shown) |  |  | rat brain homogenate | 50 µg/mL, time not given, three freeze-thaw cycles |  | remaining compound | 101 ± 2.6%
CC(C)(C)NCC(SS(=O)(=O)O)c1ccccc1 (stereo not shown) |  |  | Swiss Webster mouse, female, plasma | oral, AUC to infinity, unit not given | reference: PO over IV, dose-normalised | oral bioavailability | 0.085
CC[C@H](C)[C@H](NC(=O)[C@H](Cc1ccccc1)NC(=O)[C@H](CC(=O)O)NC(=O)[C@H](CCCNC(=N)N)NC(=O)[C@H](Cc1ccccc1)NC(=O)[C@H](Cc1ccccc1)NC(=O)[C@H](CCCN)NC(=O)[C@H](CO)NC(=O)[C@H](CC(C)C)NC(=O)[C@H](CCCNC(=N)N)NC(=O)[C@H](CCSC)NC(=O)[C@H](C)N)C(=O)N[C@@H](CCN)C(=O)N[C@@H](CCC(N)=O)C(=O)N[C@@H](CCCNC(=N)N)C(=O)N[C@@H](CCCCN)C(=O)N[C@@H](CCCCN)C(=O)O |  | circular dichroism | 20% TFE in PBS | 200 µM, pH 7.4, 25 °C |  | helicity | 21%
NC(=O)c1ccc(C(=O)NOCc2ccc(Sc3cccc(Cl)c3)c(C(F)(F)F)c2)cc1 |  |  | male ICR mouse, plasma | intraperitoneal, 30 mg/kg |  | AUC(0-inf) | 24500 ng·h/mL
CN(Cc1ccc(F)cc1)Cc1cc(=O)oc2cc(O)ccc12 |  |  | human serum | 0.5 mM, 120 min |  | remaining intact compound | > 99%
COC(=O)c1ccc2c(c1)NC(=O)/C2=C(\Nc1ccc2c(c1)CCN2C(=O)CN1CCOCC1)c1ccccc1 |  |  | cynomolgus monkey, plasma | intravenous, 2 mg/kg |  | Vd | 3.57 L/kg
C[C@H]1Nc2nc(=O)c3[nH]ccc3n2Cc2ccc(Cl)cc21 |  |  | dog, both sexes, plasma | 100 mg/kg | reference: dog over human 10 mg | exposure ratio | not detected
CCCC(CCC)NC(=O)c1ccc(OC2OC(C(=O)O)C(O)C(O)C2O)c(OC)c1 (stereo not shown) |  |  | male Sprague-Dawley rat, plasma | oral, 50 mg/kg of parent drug |  | Tmax | 6 h
CC(=O)N[C@@H](CC(N)=O)C(=O)NCC(=O)N[C@@H](C)C(=O)N[C@@H](C)C(N)=O |  | 1H NMR | sodium phosphate buffer 50 mM | pH 7.8, 55 °C |  | half-life of Asn form | 2.6 h

Some of these lines once more:
SMILES | target or system | test | test system | setting | scale | endpoint | result
C[Si]1(C[C@@H](CN)CC(=O)O)CCCC1 |  |  | male Sprague-Dawley rat, brain | oral, 30 mg/kg, 1 h, single dose |  | concentration | 2600 nM
CN1CCC(Cn2nc(-c3ccc4nc(O)ccc4c3)c3c(N)ncnc32)CC1 |  |  | piglets, crossbred | oral, 10 mg/kg twice daily, 2 h before dose 9, 7 days post infection |  | plasma concentration | 200 ± 10 nM
